# Assay results from different studies.
# Parts stem from different laboratories: compare values within a part only. Positions count from the first letter of the parent shown.

# Study 1
# Target: Ras GTPase-activating protein-binding protein 1, full length (G3BP1, Homo sapiens, UniProt Q13283)
# UniProt Q13283, sequence (whole entry, looked up): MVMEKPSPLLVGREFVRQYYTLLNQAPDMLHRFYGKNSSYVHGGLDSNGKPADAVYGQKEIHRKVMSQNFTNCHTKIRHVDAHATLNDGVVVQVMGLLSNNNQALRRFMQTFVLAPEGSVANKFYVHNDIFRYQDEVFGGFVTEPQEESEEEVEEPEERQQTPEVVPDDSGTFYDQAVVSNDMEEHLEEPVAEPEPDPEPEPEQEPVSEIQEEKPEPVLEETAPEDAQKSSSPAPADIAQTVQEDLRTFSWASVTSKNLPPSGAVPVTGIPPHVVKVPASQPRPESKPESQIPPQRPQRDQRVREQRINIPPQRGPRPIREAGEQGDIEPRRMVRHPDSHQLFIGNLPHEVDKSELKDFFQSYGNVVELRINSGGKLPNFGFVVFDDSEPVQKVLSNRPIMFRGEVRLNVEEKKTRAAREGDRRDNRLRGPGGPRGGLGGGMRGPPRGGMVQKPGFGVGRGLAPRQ
# Technique: RNA Bind-n-Seq
# Molecule type: RNA
# Medium: in vitro
# Tested at: 200 nM
# Notes: whole 134-nt RNA, ends assumed
# Together with: 150 mM LiCl
# Reference: input library
# Reading: higher = stronger binding
# All molecules: 7-deaza-guanosine replaces G
# All sequences stand within: GGGAGUUCUACAGUCCGACGAUC … UGGAAUUCUCGGGUGUCAAGG
Strand,log2 enrichment
UCCUGUGCUACACAUCGUAUGUACCGAAUCAAACCCCCAAAUUUUUUUAAAUUUUUAAAAAAGUAUUAUGUUACGCCGUUCGGAUCUGCA,1.21
UCAAGUCCUGUGCUACACAUCGUAUGUACCGAAUCGUGUGUGUGUGUGUGUGUGAAAGUAUUAUGUUACGCCGUUCGGAUCUGCACUUCC,-0.708
ACAGGAAGUAAAAACAAAUGGAAAUGCUUCGGAUAGUGGCAGGGGUGGGGGUUGCUAAGGAAAGGGUGGGAUGGGAGUGGGUAAAGAGUU,-0.124
UGGGAGGUGGAUUUUGUUUAUUUUUUUAGCUCAUUUCCAGGGGUGGGAAUUUUUUUUUCAUAUGUGUCAUGAAUAAAGUUGUUUUUGAAA,0.0842
CAAGUCCUGUGCUACACAUCGUAUGUACCGAAUCGGAAAAAGGUGGUUUUUUUGGAAAGUAUUAUGUUACGCCGUUCGGAUCUGCACUUC,-1.15
UGGCCCUGGUGGCAGGCGGGGAGGAAGAGGUGGCCUCAUGGAUCGUGGUGGUCCCGGUGGAAUGUUCAGAGGUGGCCGUGGUGGAGACAG,0.849
UUGACCGGAGCGGCCGUCACUUUGGUACAAUCCUCAAUUACCUGCGGGAUGGGUCUGUGCCACUGCCGGAGAGUACGAGAGAACUGGGGG,-1.37
CAAGUCCUGUGCUACACAUCGUAUGUACCGAAUCGGAAAGGUUUUUUUGGAAAGGAAAGUAUUAUGUUACGCCGUUCGGAUCUGCACUUC,-1.53
UUUUAGAAAGAGAAGGGGAAGAAAAUGAAGCCUUACAUAAGAUGAUUGCAAACGAGCAAAAGACUUCUCUCCCAAAUUUGUUCCAGGAUA,-2.52
UCCUGUGCUACACAUCGUAUGUACCGAAUCGGGGAAAAAGGGAAAAAGGGGAAAAAGGGGAAAGUAUUAUGUUACGCCGUUCGGAUCUGC,-0.109
UUCCCUGAAGAUGAGAUCCCAGAGAAGGCCUGCAGGCGCCUGCUUGAAGGGAGGCGGCAGAAGAAGACGAAGAAGCAGAAGCGUCUGCUC,-0.774

# Study 2
# Target: CREB3L4, bZIP domain (human)
# Technique: DHFR protein complementation
# Medium: yeast
# Notes: single substitutions, most at no-binding floor
# Reference: wild-type JUN-FOS pair
# Reading: higher = stronger binding
# Parent: JUN, bZIP domain (human); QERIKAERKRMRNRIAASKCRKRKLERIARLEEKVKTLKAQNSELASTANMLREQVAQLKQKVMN; partner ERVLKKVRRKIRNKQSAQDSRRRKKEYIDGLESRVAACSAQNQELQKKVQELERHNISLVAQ
Substitution,binding fitness [natural log]
A40W,-1.58
E33P,-1.49
A49G,-1.52
V35G,-1.51
V56R,-1.47
E44A,-1.27
K36S,-1.36
K36F,-1.54
A57S,-1.23
L38F,-1.47
S43H,-1.58
E32F,-1.52
I28P,-1.48
L59S,-1.48
L52C,-1.48
A29M,-1.49
A29R,-1.49
L52H,-1.54
T37K,-1.45
E44Y,-1.26
L59N,-1.51
A29T,-1.52
A46C,-1.44
A57W,-1.46
A49D,-1.57

# Study 3
# Target: UBE2J1 UBC core domain (UniProt Q9Y385)
# UniProt Q9Y385, sequence (whole entry, looked up): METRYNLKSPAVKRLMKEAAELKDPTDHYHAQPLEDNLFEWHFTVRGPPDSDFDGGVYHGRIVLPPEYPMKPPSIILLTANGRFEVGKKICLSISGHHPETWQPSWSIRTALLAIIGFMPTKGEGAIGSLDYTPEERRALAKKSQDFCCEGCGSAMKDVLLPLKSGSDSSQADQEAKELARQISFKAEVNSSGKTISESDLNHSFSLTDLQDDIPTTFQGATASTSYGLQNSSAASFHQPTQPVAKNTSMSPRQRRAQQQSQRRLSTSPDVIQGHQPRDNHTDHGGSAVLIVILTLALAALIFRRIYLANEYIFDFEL
# Technique: yeast two-hybrid
# Medium: yeast
# Notes: mostly zero background
# Reference: not given
# Reading: higher = stronger interaction
# B1: RNF122 RING domain (UniProt Q9H9V4); chain AKKLQLYGQTCAVCLEDFKGKDELGVLPCQHAFHRKCLVKWLEVRCVCPMCNKPIASPSEAT
# B2: TRIM60 RING domain (UniProt Q495X7); chain ALVNLQEESSCPICLEYLKDPVTINCGHNFCRSCLSVSWKDLDDTFPCPVCRFCFPYKSFRR
# B3: MEX3B RING domain (UniProt Q6ZN04); chain SGLRRKGSRDCSVCFESEVIAALVPCGHNLFCMECANRICEKSEPECPVCHTAVTQAIRIF
# B4: RNF183 RING domain (UniProt Q96D59); chain EQQGRELEAECPVCWNPFNNTFHTPKMLDCCHSFCVECLAHLSLVTPARRRLLCPLCRQPTVLASGQP
# B5: TRIM54 RING domain (UniProt Q9BYV2); chain SMDNLEKQLICPICLEMFSKPVVILPCQHNLCRKCANDVFQASNPLWQSRGSTTVSSGGRFRCPSCRHEVVLDRHGV
# B6: RNF2 RING domain (UniProt Q99496); chain SPRSLHSELMCPICLDMLKNTMTTKECLHRFCADCIITALRSGNKECPTCRKKLVSKRSLR
# B7: RNF31 RING domain (UniProt Q96EP0); chain AFLRRLLAQECAVCGWALPHNRMQALTSCECTICPDCFRQHFTIALKEKHITDMVCPACGRPDLTDDTQLL
# B8: MYCBP2 RING domain (UniProt O75592); chain TSLKQDADDMCMICFTEALSAAPAIQLDCSHIFHLQCCRRVLENRWLGPRITFGFISCPICKNKINHIVLKD
Sequence,lacZ reporter activity
LGTKLEAKYLCSACRNVLRRPFQAQCGHRYCSFCLASILSSGPQNCAACVHEGIYEEGIS (TRAF2 RING domain (UniProt Q12933)),0
B1 (RNF122 RING domain),0
AEADPLGRFTCPVCLEVYEKPVQVPCGHVFCSACLQECLKPKKPVCGVCRSALAPGVRAV (RNF114 RING domain (UniProt Q9Y508)),0
B2 (TRIM60 RING domain),0
B3 (MEX3B RING domain),0
QVQSRTKIEECVVCSDKKAAVLFQPCGHMCACENCANLMKKCVQCRAVVERRVPFI (MIB1 RING domain (UniProt Q86YT6)),0
B4 (RNF183 RING domain),0
YCEMGSTFQLCKICAENDKDVKIEPCGHLMCTSCLTAWQESDGQGCPFCRCEIKGTEPII (CBLB RING domain (UniProt Q13191)),0
LDAASGHPLVCPLCHGQYERPCLLDCFHDFCTGCLRGRATDGRLSCPLCQHQTLVKGPSG (Rnf207 RING domain (UniProt Q3V3A7)),0
FVKTVEDKYKCEKCHLVLCSPKQTECGHRFCESCMAALLSSSSPKCTACQESIVKDKVF (TRAF3 RING domain (UniProt Q13114)),0
B5 (TRIM54 RING domain),0
B6 (RNF2 RING domain),0
MNDVLENELQCIICSEYFIEAVTLNCAHSFCSYCINEWMKRKIECPICRKDIKSKTYSL (RNF8 RING domain (UniProt O76064)),0
B7 (RNF31 RING domain),0
B8 (MYCBP2 RING domain),0

# Study 4
# Target: CCNA2, cyclin fold, Cln2 fusion (human)
# Technique: yeast growth competition, sequencing
# Medium: yeast
# Notes: strong parent motif
# Reference: not given
# Reading: higher = stronger binding
# Parent: E2F1 docking peptide (human); PPVKRRLDLETDH
Substitution,normalised enrichment score
R6Q,2.67
D12A,4.57
E10A,3.9
D8M,4.01
E10D,5.45
R5H,-0.147
P2Q,3.26
E10Q,4.49
V3F,1.22
P2M,2.47
P1W,4.41
K4N,2.97
R6G,0.38
L7A,-0.163
D8A,4.06
K4E,0.287
D12V,4.87
P2Y,2.76
P2E,2.77
R6W,0.549
D8I,4.73
V3M,0.921
H13S,4.72

# Study 5
# Target: ABI1, truncated, D143A, DHFR fusion (Arabidopsis thaliana)
# Technique: DHFR PCA, deep sequencing
# Medium: yeast
# Notes: methotrexate growth selection, single substitutions
# Together with: (+)-ABA 710 µM
# Reference: wild-type fitted maximum
# Reading: higher = stronger binding
# Parent: PYL1, truncated, DHFR fusion (Arabidopsis thaliana); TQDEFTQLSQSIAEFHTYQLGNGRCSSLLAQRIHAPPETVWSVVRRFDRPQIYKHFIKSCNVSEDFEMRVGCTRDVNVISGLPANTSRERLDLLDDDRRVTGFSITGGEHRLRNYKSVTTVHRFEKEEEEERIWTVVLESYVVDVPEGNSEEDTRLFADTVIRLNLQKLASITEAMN
Substitution,relative binding score
T6A,109%
Y115K,6.7%
V142Y,86.9%
E129M,99.8%
K116T,103%
D153N,72.8%
L8F,99.7%
T154H,-29%
E109P,83.7%
A35V,89.9%
W41Q,-25.5%
Q10W,99.5%
T120K,8.81%
V40R,-8.94%
T101M,113%
I33T,66.2%

# Repeated from above (study 3):
Sequence,lacZ reporter activity
QVQSRTKIEECVVCSDKKAAVLFQPCGHMCACENCANLMKKCVQCRAVVERRVPFI (MIB1 RING domain (UniProt Q86YT6)),0
B1 (RNF122 RING domain),0
B6 (RNF2 RING domain),0
B4 (RNF183 RING domain),0
AEADPLGRFTCPVCLEVYEKPVQVPCGHVFCSACLQECLKPKKPVCGVCRSALAPGVRAV (RNF114 RING domain (UniProt Q9Y508)),0
YCEMGSTFQLCKICAENDKDVKIEPCGHLMCTSCLTAWQESDGQGCPFCRCEIKGTEPII (CBLB RING domain (UniProt Q13191)),0
